Results gathered from unrelated publications.
A part holds a random share of what one study measured.
Sequence of UniProt Q8WXR4 (whole entry, looked up): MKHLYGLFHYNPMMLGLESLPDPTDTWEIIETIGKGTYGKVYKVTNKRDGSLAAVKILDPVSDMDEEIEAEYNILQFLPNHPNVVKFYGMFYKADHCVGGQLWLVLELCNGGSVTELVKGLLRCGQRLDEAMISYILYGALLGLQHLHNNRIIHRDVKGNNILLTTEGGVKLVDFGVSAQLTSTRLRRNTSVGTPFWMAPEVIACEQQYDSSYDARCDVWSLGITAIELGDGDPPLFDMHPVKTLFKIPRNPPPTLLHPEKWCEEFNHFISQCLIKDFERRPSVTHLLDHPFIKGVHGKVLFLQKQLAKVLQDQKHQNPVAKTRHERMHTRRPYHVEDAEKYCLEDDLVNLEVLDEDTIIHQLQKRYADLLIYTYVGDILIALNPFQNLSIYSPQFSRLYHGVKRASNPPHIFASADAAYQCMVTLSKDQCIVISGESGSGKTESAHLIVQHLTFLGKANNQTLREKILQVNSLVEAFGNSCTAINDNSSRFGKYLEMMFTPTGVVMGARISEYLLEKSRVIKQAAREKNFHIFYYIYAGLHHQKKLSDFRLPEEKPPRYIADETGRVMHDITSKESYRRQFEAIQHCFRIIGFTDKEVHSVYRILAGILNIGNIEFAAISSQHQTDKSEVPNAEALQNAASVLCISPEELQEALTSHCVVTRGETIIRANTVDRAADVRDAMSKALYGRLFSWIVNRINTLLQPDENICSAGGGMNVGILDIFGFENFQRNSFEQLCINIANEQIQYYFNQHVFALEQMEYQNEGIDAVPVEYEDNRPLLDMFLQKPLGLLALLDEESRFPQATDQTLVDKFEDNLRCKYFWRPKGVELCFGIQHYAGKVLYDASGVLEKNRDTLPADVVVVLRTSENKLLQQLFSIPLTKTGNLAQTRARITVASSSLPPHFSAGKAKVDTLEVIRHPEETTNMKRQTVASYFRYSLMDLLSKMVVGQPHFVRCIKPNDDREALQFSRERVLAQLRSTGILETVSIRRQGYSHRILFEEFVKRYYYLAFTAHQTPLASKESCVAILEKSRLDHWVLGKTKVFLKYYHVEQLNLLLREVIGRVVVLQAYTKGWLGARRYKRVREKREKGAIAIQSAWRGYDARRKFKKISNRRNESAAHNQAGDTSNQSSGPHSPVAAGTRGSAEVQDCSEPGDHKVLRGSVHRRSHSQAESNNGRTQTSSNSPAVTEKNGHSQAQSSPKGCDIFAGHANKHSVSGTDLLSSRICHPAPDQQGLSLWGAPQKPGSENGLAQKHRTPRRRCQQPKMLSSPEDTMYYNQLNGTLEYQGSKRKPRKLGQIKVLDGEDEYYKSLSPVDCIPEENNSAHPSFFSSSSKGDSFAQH
Sequence of UniProt P57059 (whole entry, looked up): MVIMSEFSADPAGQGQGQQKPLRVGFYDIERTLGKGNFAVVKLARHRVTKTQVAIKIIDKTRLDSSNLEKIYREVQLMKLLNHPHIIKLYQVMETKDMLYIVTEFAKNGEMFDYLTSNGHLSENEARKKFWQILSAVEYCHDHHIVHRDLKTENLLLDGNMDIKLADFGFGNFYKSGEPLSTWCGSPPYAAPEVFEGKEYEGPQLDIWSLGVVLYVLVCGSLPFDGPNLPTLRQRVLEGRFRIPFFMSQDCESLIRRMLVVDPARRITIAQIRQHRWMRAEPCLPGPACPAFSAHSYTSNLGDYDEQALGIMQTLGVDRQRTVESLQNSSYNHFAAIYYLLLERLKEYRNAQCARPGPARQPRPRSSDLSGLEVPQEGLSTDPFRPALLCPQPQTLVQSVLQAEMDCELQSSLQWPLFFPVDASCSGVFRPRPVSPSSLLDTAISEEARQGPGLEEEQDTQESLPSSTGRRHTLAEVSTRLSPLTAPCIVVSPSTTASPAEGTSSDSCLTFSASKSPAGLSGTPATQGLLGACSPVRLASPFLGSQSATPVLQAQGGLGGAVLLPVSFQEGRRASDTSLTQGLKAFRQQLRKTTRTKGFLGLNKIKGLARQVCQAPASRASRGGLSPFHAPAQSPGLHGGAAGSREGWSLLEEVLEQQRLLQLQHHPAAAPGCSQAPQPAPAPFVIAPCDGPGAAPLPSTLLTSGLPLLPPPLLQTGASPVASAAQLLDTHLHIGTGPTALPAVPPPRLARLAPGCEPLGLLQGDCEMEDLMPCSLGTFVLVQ
Sequence of UniProt Q13555 (whole entry, looked up): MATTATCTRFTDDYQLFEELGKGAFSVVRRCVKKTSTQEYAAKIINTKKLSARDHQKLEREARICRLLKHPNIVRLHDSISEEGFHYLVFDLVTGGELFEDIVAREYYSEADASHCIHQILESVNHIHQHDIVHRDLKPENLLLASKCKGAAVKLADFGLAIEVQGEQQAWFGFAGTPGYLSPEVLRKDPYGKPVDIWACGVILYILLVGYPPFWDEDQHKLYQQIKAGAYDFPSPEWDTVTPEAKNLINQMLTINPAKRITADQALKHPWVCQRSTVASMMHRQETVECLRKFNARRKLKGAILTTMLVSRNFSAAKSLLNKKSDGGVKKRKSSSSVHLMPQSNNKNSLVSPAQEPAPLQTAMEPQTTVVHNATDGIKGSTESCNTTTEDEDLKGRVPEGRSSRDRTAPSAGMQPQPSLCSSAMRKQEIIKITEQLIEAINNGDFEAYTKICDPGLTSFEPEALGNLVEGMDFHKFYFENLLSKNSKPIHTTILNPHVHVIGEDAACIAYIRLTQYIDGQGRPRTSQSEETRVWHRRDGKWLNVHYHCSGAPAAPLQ

Sample 1
Compound: Cc1c(NC(=O)c2cc(C(N)=O)nc3cc(F)ccc23)c(C(F)(F)F)nn1Cc1ccc(C#N)cc1
Tested at: 1 µM
Measurement: remaining binding
target = Myosin-IIIb (MYO3B, Homo sapiens, UniProt Q8WXR4); test = binding, competition with immobilised ligand; value = 100%
target = SIK1 (Homo sapiens, UniProt P57059); test = competition binding; value = 100%
target = CAMK2G (Homo sapiens, UniProt Q13555); test = binding, competition with immobilised ligand; value = 86%

Sample 2
Target: Hepatocyte nuclear factor 3-alpha (Foxa1, Mus musculus, UniProt P35582, residues 1-468, full length assumed)
Method: EMSA with sequencing
Molecule type: double-stranded DNA, one strand shown
Medium: in vitro
Tested at: 10 and 20 nM
Setting: whole designed probe, mean of two concentrations, ends assumed
Baseline: negative control set to 0
Reading: higher = stronger binding
Measurement: normalised bound fraction
Constant ends, left off below: GTGAGCGGTGCCCATTGATGGGGAAC … TTTCACTGGGATCGTGGGGAC
Residues (chain): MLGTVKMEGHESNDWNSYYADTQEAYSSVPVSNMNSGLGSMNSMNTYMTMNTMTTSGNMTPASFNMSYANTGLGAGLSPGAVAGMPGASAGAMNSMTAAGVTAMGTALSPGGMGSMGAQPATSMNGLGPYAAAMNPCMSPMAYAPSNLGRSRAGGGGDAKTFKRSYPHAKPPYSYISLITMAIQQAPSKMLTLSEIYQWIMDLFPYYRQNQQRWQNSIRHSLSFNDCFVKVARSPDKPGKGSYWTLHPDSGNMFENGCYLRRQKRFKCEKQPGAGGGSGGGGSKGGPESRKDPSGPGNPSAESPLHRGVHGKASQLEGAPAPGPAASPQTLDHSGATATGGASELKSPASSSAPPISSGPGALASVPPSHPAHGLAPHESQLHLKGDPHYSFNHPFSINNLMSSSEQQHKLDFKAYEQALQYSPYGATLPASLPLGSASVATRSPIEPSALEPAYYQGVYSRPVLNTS
Sequence = TGTATCCATCTGGGCAGTATCTTCTCTGGGCCTGGCCTGTCATAGGTGCTTCAGGTTTCCCCATTTGAACCAGATACCAGTCGGGTTACCGGATGTTTGCTTAAAATGAGTCATAATTCCTGTGGGCTTCCTGCTCTGCTTCCAGCTAGGACTGATCGAATCAGTCTGGATTTTCCTTGGGGTGATCCGCAGG; value = 0.126 ratio
Sequence = ATCTTCCCCCTCTTCCTTGCCCCACCAGCTCACCTTCCCGGGTTATTTGCAGATAGGAAAATAAATAAAGCCGGCATTCGTTAACCCTCTTCTGGCGCAAACTGCCAGAGCAAACAGATCTAACATGGTCCTTTGGCGACGCCAGGCTCCGGGAGAGCAAAGCACCGTGTCAGGGCCATGATCCGGGGTGGCC; value = 0.396 ratio
Sequence = AGATAAAGAATAAGACCTAATATATTTCATATTGTCCTTGAAGGTGAGGAGAGAGGAAATGGAGTGGAGCCATTGTTTTAAGGATGAATATGGGTAAACATTTTCTGGAACTGATACATGACTGTGTGAGAAGAAAAACTGAGTCATTGTGCCTTGGTGACAATCAATCCATCTCCCATGTTTCAGACAACCT; value = 0.0496 ratio
Sequence = TGCCATGGGCCTTCATTTCCAGGCTTCCAGGCTCACCAGCTCAGGAAGAGGATTTTGCTAAGCAGTGGATATATACACAAAGGCAGGGCCAATGCAAATAAGAAATTCCTGGTCCACAAATAAACATTTCTTAAGCAACCCACACAATGAAATGGATGATAGCGTTTTCTACCCGAACTTTTCTCTAATTACA; value = 0.339 ratio
Sequence = TGGGGTAAAGAGCCCTCACCCTGCCTGCCACACACTGGTAGTGTCAGATAACATTGAAGGGTGTTAGTTTAAAGGCTTCATGGACTCTATAATGTCATCTAAAGTGCTGTTAACTTTCTTCTGGGTCTCAGGCTCCTGATGTAGAGTCAGTGGAGCAACCCTGCCATCTGCTGTTATGCTGTTGATGTTGCTG; value = 0.0811 ratio
Sequence = TGTTCTGAAAGCATTGGGATGCATCCATGTTTTGCGTACAGACCCCCTTCTGTCTGGTGCACTCTGCCCTCTAAAAGCTTCCTGAATTGCTTTGTAATCTAGGCAGCTACTACAGCTGCAACTGTTGGGTTTGGACTTTTGCCAGCTTGAAATTTATCCCTGCCCTAATGCTATATATCTGGGAGCAGGCAGT; value = -0.0816 ratio
Sequence = GACAGTACATGTTTTAGGATTTTTGGACCACACAGTCTCTGTCACAATGACTCAGCTTTGCCATTGTAGCGTGCAAACAGCCACAAACCATATGCAAACAAATGTATGCCAATAAAACTTTATTGAGGGTGTGGTTACAAAAGCAGGAGGACAGTGGAGTTGGCTTGCAGACAGTCATTTGCAGAGCCCTGAT; value = 0.383 ratio
Sequence = CCCTGATTGCTATGTTCTAGAAAGTTTTAACCGAAAGTACCAGCTTTACATGTGTATGTGAATCAAACATGTAAACATCCACCTCTCTTTGTGTAATCTAGGAAAAATGGCAAAATATTTTCAGAGAATTTTTCTCTCCCATTTAAGTTTGAAGTTTCAACAAGCATATTATACTTTGAGAGAGAAAAGCAAA; value = 0.131 ratio

Sample 3
Target: Cyclin-dependent kinase 6, with cyclin D3 (CDK6, Homo sapiens, UniProt Q00534)
Sequence of UniProt Q00534 (whole entry, looked up): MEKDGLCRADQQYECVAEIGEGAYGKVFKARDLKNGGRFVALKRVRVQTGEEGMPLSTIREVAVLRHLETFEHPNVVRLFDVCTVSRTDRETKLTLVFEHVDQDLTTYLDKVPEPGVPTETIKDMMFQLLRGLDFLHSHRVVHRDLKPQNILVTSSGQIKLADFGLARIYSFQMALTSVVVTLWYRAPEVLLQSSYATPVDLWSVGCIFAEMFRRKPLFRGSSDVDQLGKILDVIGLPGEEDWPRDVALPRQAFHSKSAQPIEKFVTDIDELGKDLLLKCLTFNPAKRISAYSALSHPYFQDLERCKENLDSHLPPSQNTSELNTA
Effect on: enzyme activity
Action: inhibitor
Tested at: 0.5 µM
Baseline: control
Measurement: remaining activity
Compound = CN(C)c1ccc(C=C2C(=O)Nc3ccccc32)cc1; value = 96.4%
Compound = Cc1cccc(-c2[nH]c(C(C)(C)C)nc2-c2ccc3c(c2)OCO3)n1; value = 98%
Compound = O=C1NC(=O)C(c2cn(CCCO)c3ncccc23)=C1c1cnccn1; value = 84.4%
Compound = Cn1c2ccccc2c2c3c(c4c5ccccc5n(CCC#N)c4c21)CNC3=O; value = 52.1%
Compound = Cn1sc(=O)n(Cc2ccccc2)c1=O; value = 100%
Compound = COc1cc2ncnc(Nc3ccc(Oc4ccccc4)cc3)c2cc1OC; value = 108%
Compound = COc1cc2nccc(Oc3ccc(NC(=S)NC(=O)c4ccccc4C)cc3)c2cc1OC; value = 97.3%
Compound = N#CC(C#N)=C(N)/C(C#N)=C/c1ccc(O)cc1; value = 100%
Compound = CO[C@H]1C[C@@H]2CC[C@@H](C)[C@@](O)(O2)C(=O)C(=O)N2CCCC[C@H]2C(=O)O[C@H]([C@H](C)C[C@@H]2CC[C@@H](O)[C@H](OC)C2)CC(=O)[C@H](C)/C=C(\C)[C@@H](O)[C@@H](OC)C(=O)[C@H](C)C[C@H](C)/C=C/C=C/C=C/1C; value = 105%
Compound = COc1cc2ncnc(Nc3ccc(F)c(Cl)c3)c2cc1OCCCN1CCOCC1; value = 118%
Compound = Cc1ccc(Nc2nccc(N(C)c3ccc4c(C)n(C)nc4c3)n2)cc1S(N)(=O)=O; value = 96.1%
Compound = COc1ccc(CNC(=O)Nc2ncc([N+](=O)[O-])s2)cc1; value = 99.1%
Compound = CCOC(=O)c1c(C)[nH]c(/C=C2\C(=O)Nc3ccccc32)c1C; value = 84.7%

Sample 4
Target: PABPC1L2, full length, GST fusion (mouse, UniProt A0ABA7IW68)
Method: RNAcompete
Molecule type: RNA
Medium: in vitro
Tested at: 20 nM
Setting: 7-mer, probes averaged, single round
Baseline: mean of 7-mers
Reading: higher = stronger binding
Measurement: 7-mer Z-score
Target sequence (chain): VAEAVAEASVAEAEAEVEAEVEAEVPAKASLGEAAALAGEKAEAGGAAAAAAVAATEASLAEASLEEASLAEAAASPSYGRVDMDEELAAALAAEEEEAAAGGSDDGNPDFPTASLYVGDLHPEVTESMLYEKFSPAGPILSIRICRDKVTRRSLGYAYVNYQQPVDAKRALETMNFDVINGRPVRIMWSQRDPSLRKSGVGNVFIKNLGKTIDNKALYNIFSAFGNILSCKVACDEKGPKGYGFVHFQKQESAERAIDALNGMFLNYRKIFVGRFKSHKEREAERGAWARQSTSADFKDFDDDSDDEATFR
Sequence = CUUCCAC; value = -0.353
Sequence = CAAUAAA; value = 3.31
Sequence = UUAAUAA; value = 0.0932
Sequence = AUUUGCC; value = -0.364
Sequence = GCUGGAG; value = 0.0424
Sequence = GACCGGU; value = -0.248
Sequence = UGGGGGU; value = 0.291
Sequence = GCUUAAU; value = -0.277

For quick reference, copied from above (sample 3):
Compound = COc1cc2ncnc(Nc3ccc(Oc4ccccc4)cc3)c2cc1OC; value = 108%
Compound = Cn1c2ccccc2c2c3c(c4c5ccccc5n(CCC#N)c4c21)CNC3=O; value = 52.1%
Compound = Cn1sc(=O)n(Cc2ccccc2)c1=O; value = 100%
Compound = N#CC(C#N)=C(N)/C(C#N)=C/c1ccc(O)cc1; value = 100%
